Assay results collected from several papers.
A part holds a random share of what one study measured.

Set 1
Target: Interferon regulatory factor 7, full length, phosphomimetic (IRF7, Homo sapiens, UniProt Q92985, residues 1-503, S101K/S471D/S472D/S475D/S476D/S477D/S483D/S484D/S487D)
Sequence of UniProt Q92985 (whole entry, unmodified, looked up): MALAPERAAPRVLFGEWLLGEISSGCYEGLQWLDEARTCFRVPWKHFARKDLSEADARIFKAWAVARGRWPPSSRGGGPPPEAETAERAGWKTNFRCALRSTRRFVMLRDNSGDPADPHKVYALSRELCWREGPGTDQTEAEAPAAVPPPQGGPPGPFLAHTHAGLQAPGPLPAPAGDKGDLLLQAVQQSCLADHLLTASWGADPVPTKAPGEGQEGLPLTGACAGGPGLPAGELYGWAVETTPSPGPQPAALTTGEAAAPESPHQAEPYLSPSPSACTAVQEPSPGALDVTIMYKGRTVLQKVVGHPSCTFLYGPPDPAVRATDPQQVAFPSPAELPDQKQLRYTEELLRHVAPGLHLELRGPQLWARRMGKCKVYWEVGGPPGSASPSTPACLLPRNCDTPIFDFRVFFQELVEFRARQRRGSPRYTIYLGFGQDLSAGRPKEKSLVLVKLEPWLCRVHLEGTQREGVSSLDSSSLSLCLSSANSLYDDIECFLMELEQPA
Technique: protein-binding microarray
Form: double-stranded DNA, one strand shown
Medium: in vitro
Concentration: 250 nM
Setting: 60-bp whole probe
Added: salmon DNA 0.4 mg/ml
Reference: random background probes
Reading: higher = stronger binding
Sequence | log fluorescence [z-score]
GCCTAGCACGACGGTTTAGGGTATCGGGACGTGCTAGTCTTGATTCGCTTGACGCTGCTG | -0.00522
GCCTAGCACTCATGTTTGGTGTCTTTTACTGTGCTAGTCTTGATTCGCTTGACGCTGCTG | 0.141
GCCTAGCACTTAGAACTGAGTATCGATAAGTGCTAGGTCTTGATTCGCTTGACGCTGCTG | 0.248
GCCTAGCACTTAGATACCAGACTGGATTAGTGCTAGGTCTTGATTCGCTTGACGCTGCTG | 0.333

Set 2
Target: Histone acetyltransferase KAT6A, both winged helices, GST fusion (KAT6A, Homo sapiens, UniProt Q92794, residues 1-181)
Technique: protein binding microarray
Form: double-stranded DNA, one strand shown
Medium: in vitro
Concentration: not given
Setting: 8-mer, flanks averaged, mean of 2 arrays, mostly near background
Reference: not given
Reading: higher = stronger binding
Target sequence (chain): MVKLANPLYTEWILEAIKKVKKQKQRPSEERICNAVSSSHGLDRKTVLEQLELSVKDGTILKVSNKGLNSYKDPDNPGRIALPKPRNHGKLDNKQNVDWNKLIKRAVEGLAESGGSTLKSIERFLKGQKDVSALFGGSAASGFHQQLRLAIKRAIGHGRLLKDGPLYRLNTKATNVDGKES
Sequence | E-score
CCCAGCGG | 0.143
CTCGCTGC | -0.0128
ACACCCCT | -0.209
GTTTTCCA | -0.0183

Set 3
Target: Phosphate system positive regulatory protein PHO4, full length, GST-tagged (PHO4, Saccharomyces cerevisiae, UniProt P07270, residues 1-312)
Technique: competition protein-binding microarray
Form: double-stranded DNA, one strand shown
Medium: in vitro
Concentration: 2 µM
Setting: whole 60-bp probe, lowest competitor level
Added: Cbf1 competitor, 0.05 µM
Reading: higher = stronger binding
Residues (chain): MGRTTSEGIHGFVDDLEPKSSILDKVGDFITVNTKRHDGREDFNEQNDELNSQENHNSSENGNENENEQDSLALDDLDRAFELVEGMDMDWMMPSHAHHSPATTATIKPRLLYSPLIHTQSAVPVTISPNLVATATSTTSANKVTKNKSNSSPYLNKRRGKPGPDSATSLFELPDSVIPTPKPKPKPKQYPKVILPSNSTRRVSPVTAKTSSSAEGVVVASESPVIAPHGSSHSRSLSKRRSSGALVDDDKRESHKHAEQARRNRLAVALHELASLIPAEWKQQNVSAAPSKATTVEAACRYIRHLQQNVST
Sequence | fluorescence intensity [a.u.]
AAAGCGGTAATTTGTTTTGTGGGTGCAGATATCTATGTCTTGATTCGCTTGACGCTGCTG | 3780
TGTTGCAGTCGAATTCTCGTGGCCGTACGCAATTTCGTCTTGATTCGCTTGACGCTGCTG | 6140
AATGATGTGCTTGTCATCGTGGGTAACTTCACCAGCGTCTTGATTCGCTTGACGCTGCTG | 8660

Mixed results
Substance | target | assay | system | setting | scale | endpoint | result
PhoQ, residues 284 288 289 292 302 303 SMYGEC | PhoP, residues 12 14 15 18 19 QYCSL (Escherichia coli, UniProt P23836) | Sort-seq, item: YFP reporter | E. coli | PhoQ-PhoP variant library, added: 10 µM Mg2+ | reference: high Mg2+ state, higher = stronger signaling | fold induction | 12.2

Repeated from above (set 1):
Sequence | log fluorescence [z-score]
GCCTAGCACTTAGATACCAGACTGGATTAGTGCTAGGTCTTGATTCGCTTGACGCTGCTG | 0.333
GCCTAGCACTTAGAACTGAGTATCGATAAGTGCTAGGTCTTGATTCGCTTGACGCTGCTG | 0.248
